Results gathered from unrelated publications.
Numbered parts are unrelated; each lists some results of a single study.

Study 1
Target: Hepatocyte nuclear factor 3-alpha (Foxa1, Mus musculus, UniProt P35582, residues 1-468, full length assumed)
Technique: EMSA with sequencing
Molecule type: double-stranded DNA, one strand shown
Matrix: in vitro
Tested at: 10 and 20 nM
Setting: whole designed probe, mean of two concentrations, ends assumed
Baseline: negative control set to 0
Direction: higher = stronger binding
Construct (chain): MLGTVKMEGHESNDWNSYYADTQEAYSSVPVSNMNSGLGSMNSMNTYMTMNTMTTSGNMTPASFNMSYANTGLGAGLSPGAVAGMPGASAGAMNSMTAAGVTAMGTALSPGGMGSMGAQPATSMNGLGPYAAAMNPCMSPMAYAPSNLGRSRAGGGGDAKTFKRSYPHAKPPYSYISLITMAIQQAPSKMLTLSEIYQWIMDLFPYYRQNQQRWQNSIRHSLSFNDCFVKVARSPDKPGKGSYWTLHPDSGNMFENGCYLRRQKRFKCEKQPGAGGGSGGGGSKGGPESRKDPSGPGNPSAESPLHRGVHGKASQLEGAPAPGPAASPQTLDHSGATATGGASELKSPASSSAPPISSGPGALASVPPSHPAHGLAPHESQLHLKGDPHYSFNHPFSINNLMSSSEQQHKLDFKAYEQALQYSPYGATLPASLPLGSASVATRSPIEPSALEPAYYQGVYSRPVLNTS
Sequence | normalised bound fraction
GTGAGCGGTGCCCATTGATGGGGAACAAGCCCCACGCACTGTCCGTGGGCGTCTCTGGCCTCCCGGACTTGTATCACAGACCCCAGCCCAAGAGACACAGGCAGAGGAAATGCTCAGTGTAATCTTGGGAATGGGAGGGTGGCCCTGCCCTGTGGCCCGGCCTGCCCTGACCTGCAACCATGCACAGTAGCCAGGTGCCACGTAGGGCCCAATGTCTGCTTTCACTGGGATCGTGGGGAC | -0.0788 ratio
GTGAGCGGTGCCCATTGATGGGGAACATCTTCCCCCTCTTCCTTGCCCCACCAGCTCACCTACGGGGGTTATTTGCACAAAGGAAAATAAATAAAGCCGGCATTCGTTAACGCAGTTCTGGCGCAAACTGCTGTTTGCTCTGCATCTAACATGGTCCTTACGCGACGCCAGGCTCCGGGAGAGCAAAGCACCGTGTCAGGCGCATGATCCGGGCTCGCCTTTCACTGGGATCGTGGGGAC | 0.394 ratio
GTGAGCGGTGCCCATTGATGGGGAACGAGCTGCTTGCAATTGAGTTGTATGTATGCTTCCACTTAATACGTCCTGCCGAGCCTGTAAGCCAACACTACGGGCCAGGAATCTGCCCTCTGTGTTTACCTACTCTCTTTTTATGTCTTATTCCCAGAATGACTGGGGACCAAAGGAATCCTTTGCAGGAGTTTTCTCCAGACAGACAGTTCCACATGCTAGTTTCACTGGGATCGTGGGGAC | 0.248 ratio
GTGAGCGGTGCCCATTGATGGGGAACCTCATCTTAGATAGTAGAATCGCAGCATTTTTTTCTGCCGGTCTGAACTCAGGCACGCTATTTGTTCATCTACTTACTCAAACATGTATTGTGTGTTTACTCAGTGGCAGGCTCAGTGCTAGGTGCTGGGGATGGAGCAGTGCAGAGAGACAAAAACTCTGCTCTCATAAAGCTCACAATCTACAACCTGAGATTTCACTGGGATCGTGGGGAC | 0.481 ratio
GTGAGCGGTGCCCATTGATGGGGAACCATACAAGAAAATAACTGTAGGCACAACTGGCACAATTATATTAGTAATAATGATGGGATAAAAATATAAAGATGCATATGTAAATTGATCTGTGTAATCTTGAATATAGTATTTGCCAAGTGACATAGACAAATATATTAAATAATATACTTTTGAATATTGGTATCAGAATCATAAAATCTTTAAAAATCATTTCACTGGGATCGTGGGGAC | 0.32 ratio
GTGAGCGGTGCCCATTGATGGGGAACTCCTTTATCCCAACATGTTTATACAGACAAAACCAGGTTAAAATCGACACAAGGTCAACTTGAAATGGGGAGACGTCAAAGAGGAAGGTCAAAATAAACATGAAGTCTTGTGTACAAGCATCTGCAGAAGAGTTCAGCCTCACCACTTGGGTAATGCTGTTGGAATGTGGTCTGGGTTCACTGTATTTGAATGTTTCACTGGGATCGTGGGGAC | 0.257 ratio

Study 2
Target: PABPC1L2, full length, GST fusion (mouse, UniProt A0ABA7IW68)
Technique: RNAcompete
Molecule type: RNA
Matrix: in vitro
Tested at: 20 nM
Setting: 7-mer, probes averaged, single round
Baseline: mean of 7-mers
Direction: higher = stronger binding
Residues (chain): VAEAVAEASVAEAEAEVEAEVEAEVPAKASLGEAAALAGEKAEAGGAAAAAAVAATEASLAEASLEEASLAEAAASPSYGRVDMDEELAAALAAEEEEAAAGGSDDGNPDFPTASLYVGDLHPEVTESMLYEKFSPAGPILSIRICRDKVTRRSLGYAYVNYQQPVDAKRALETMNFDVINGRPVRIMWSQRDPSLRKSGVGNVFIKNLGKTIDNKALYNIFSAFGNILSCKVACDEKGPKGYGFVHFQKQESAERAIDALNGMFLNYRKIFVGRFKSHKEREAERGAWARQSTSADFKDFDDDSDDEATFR
Sequence | 7-mer Z-score
GUCUGUU | -0.483
GGUUGCU | -0.0699
UCCACAC | -0.244
CAUUUCU | -0.358
GGCACUA | 0.249
GCUGCGC | -0.316
AUUUCUU | -0.258
GUUCACA | -0.333
AUUAAGA | 0.182
UGGGCGA | 0.291
AGGCUUC | -0.255
AGGCGUA | 0.0424
CUCUGAU | -0.246
GUUCAUC | -0.469
UGACUAU | -0.126
CUCAUCC | -0.425
GGUGUUC | -0.318
CGCCUAU | -0.335
CGACUUA | -0.153
ACGAUGG | 0.122
UUCCCUA | -0.284

Study 3
Target: Prothrombin, mature alpha-thrombin (F2, Homo sapiens, UniProt P00734)
Technique: aptamer microarray, sandwich
Molecule type: DNA with 2'F-ANA
Matrix: in vitro
Tested at: 200 nM
Setting: whole 15-mer aptamer, many near background
Added: Cy3 exosite-II aptamer, 400 nM
Direction: higher = stronger binding
Sequence: GGTTGGTGTGGTTGG
Modification | mean fluorescence intensity [a.u.]
2'F-ANA at 1 2 3 5 8 9 11 13 14 | 46.2
2'F-ANA at 1 2 5 6 7 11 12 14 | 45.6
2'F-ANA at 6 7 8 9 13 14 15 | 196
2'F-ANA at 1 3 7 14 15 | 136
2'F-ANA at 1 2 6 7 9 12 13 15 | 185
2'F-ANA at 1 4 6 7 12 13 | 201
2'F-ANA at 1 3 4 5 7 8 11 12 13 14 15 | 49.9
2'F-ANA at 1 2 6 7 8 12 14 | 70.3
2'F-ANA at 1 2 3 5 6 7 14 | 46.5
2'F-ANA at 1 2 7 8 9 | 194
2'F-ANA at 3 4 5 7 8 12 13 | 172
2'F-ANA at 3 6 7 11 | 983
2'F-ANA at 3 4 7 8 9 10 11 14 15 | 176
2'F-ANA at 2 5 6 7 8 9 11 14 | 46.3
2'F-ANA at 2 3 5 6 9 11 12 13 15 | 105
2'F-ANA at 2 3 5 9 11 12 13 | 133
2'F-ANA at 3 6 7 9 11 13 | 741
2'F-ANA at 1 3 7 8 9 10 15 | 91.3
2'F-ANA at 3 4 6 9 10 11 12 15 | 253
2'F-ANA at 2 3 10 11 12 13 14 | 236
2'F-ANA at 1 3 7 8 9 11 14 | 100
2'F-ANA at 2 5 6 7 8 9 11 12 14 | 49
2'F-ANA at 1 3 4 5 8 9 10 11 12 14 15 | 47.7
2'F-ANA at 2 4 5 7 9 10 12 14 | 49.5
2'F-ANA at 1 3 4 10 12 13 15 | 76.6

Study 4
Target: RNA binding protein fox-1 homolog 2, RRM domain, GST-SBP tag (RBFOX2, Homo sapiens, UniProt O43251-10, residues 100-194)
Technique: RNA Bind-n-Seq
Molecule type: RNA
Matrix: in vitro
Tested at: 365 nM
Setting: natural RNA segment, single round, ends assumed
Baseline: no-protein control
Direction: higher = stronger binding
Target sequence (chain): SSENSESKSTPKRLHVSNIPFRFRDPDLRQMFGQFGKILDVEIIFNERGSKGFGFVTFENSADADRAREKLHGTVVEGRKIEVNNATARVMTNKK
Sequence | RBNS enrichment (R)
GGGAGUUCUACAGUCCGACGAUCAAAAACUGCAGUCAUCAACAAUGAUUAAUCAGCUGUUGCAGGCAGUGUCUUAAGGAGACUGGUAGGAGGAGGCAUGGAAACCAAAAGGCCGUGUGUUUAGAAGCCUAAUUUGGAAUUCUCGGGUGCCAA | 1
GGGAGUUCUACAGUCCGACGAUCAGUAGAGAUUUCAUAGCUAUUUAGAGAUAUUUUCCAUUUUAAGAAAACCCGACAACAUUUCUGCCAGGUUUGUUAGGAGGCCACAUGAUACUUAUUCAAAAAAAUCCUAGUGGAAUUCUCGGGUGCCAA | 0.641
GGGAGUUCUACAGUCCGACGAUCAGGCCACCUCUCCCCGGGCCCCCGCGCCUCUGCCGGACACGGACCGGCCCCUCAGCCCCCACCGAGGACGCAGCCACUGGGGGGAAAGGGAGACACAGCGGACCCCGGCCUGGAAUUCUCGGGUGCCAA | 0.381
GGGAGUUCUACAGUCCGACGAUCAAAGCAAAACUCUUCUAAGUCCCACUCGUGAAUGGCAAUUAGAGAAAGGACUGACAGUGGCGGUGCCCCAUAGGAUGUCAUAUUGAGGCCCAAACUUGAUUGGAGAAUUUUGGAAUUCUCGGGUGCCAA | 1.91
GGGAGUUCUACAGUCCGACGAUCGUUGGAGGAUGAGAGCUCCUGAGGGGCAGAGGAGCAGAGAUGCAUCAGCUCGCCUGGGACUGGCUCUGUGAUAAAAAGACCCCUCCCGCUGGGUUUUCAGACCCCAUGUUUGGAAUUCUCGGGUGCCAA | 0.437
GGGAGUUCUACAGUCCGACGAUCUGUCGGCUGCUGCUUCUGGGCCACGGGGAGCCCCAGGACCUAUGCACUUUAUUUCUGACCCCGUGGCUUCGGCUGAGACCUGUGUAACCUGCUGCCCCCUCCACCCCCAAUGGAAUUCUCGGGUGCCAA | 2.06
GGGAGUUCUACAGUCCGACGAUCACCGUCCUCUUUUUCCAUCAUAAUUCUAAUCUAACAAUGGAAGAUUUGCCCAUUUACACUUUUGAGACUUUUUGGUGGAUGUAAAUAACCCCAUUCUUUGCUUGAACACAUGGAAUUCUCGGGUGCCAA | 0.435
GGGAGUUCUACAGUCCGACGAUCGAAUCUUUCUCUAGGGCACCUGGGCUCACAGCCUCCCUGGGCUCGGUUGUUCCUGCUGCCAAGUGCUCUGUGACCAUGGCCUUUGCCUAGUGGAGGGAACUCAGUGGAGGUGGAAUUCUCGGGUGCCAA | 0.328
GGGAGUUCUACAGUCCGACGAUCUCUUCUUAUCAUUCAGACGUCCCUCCAGAUGCCCAGGGUGAGUGUAACAUUUACCCACAACCUGGCUCGGCACUGGAUGAAAUUCUACAAGGUGAGUGGAGUGUAAAACUUGGAAUUCUCGGGUGCCAA | 0.246
